Assay results collected from several papers.
Protocols differ between the studies behind these lines. Numbers after ± are the reported error.
POLQ helicase domain: DNA polymerase theta, helicase domain (POLQ, Homo sapiens, UniProt O75417)
Sequence of UniProt O75417 (whole entry, looked up): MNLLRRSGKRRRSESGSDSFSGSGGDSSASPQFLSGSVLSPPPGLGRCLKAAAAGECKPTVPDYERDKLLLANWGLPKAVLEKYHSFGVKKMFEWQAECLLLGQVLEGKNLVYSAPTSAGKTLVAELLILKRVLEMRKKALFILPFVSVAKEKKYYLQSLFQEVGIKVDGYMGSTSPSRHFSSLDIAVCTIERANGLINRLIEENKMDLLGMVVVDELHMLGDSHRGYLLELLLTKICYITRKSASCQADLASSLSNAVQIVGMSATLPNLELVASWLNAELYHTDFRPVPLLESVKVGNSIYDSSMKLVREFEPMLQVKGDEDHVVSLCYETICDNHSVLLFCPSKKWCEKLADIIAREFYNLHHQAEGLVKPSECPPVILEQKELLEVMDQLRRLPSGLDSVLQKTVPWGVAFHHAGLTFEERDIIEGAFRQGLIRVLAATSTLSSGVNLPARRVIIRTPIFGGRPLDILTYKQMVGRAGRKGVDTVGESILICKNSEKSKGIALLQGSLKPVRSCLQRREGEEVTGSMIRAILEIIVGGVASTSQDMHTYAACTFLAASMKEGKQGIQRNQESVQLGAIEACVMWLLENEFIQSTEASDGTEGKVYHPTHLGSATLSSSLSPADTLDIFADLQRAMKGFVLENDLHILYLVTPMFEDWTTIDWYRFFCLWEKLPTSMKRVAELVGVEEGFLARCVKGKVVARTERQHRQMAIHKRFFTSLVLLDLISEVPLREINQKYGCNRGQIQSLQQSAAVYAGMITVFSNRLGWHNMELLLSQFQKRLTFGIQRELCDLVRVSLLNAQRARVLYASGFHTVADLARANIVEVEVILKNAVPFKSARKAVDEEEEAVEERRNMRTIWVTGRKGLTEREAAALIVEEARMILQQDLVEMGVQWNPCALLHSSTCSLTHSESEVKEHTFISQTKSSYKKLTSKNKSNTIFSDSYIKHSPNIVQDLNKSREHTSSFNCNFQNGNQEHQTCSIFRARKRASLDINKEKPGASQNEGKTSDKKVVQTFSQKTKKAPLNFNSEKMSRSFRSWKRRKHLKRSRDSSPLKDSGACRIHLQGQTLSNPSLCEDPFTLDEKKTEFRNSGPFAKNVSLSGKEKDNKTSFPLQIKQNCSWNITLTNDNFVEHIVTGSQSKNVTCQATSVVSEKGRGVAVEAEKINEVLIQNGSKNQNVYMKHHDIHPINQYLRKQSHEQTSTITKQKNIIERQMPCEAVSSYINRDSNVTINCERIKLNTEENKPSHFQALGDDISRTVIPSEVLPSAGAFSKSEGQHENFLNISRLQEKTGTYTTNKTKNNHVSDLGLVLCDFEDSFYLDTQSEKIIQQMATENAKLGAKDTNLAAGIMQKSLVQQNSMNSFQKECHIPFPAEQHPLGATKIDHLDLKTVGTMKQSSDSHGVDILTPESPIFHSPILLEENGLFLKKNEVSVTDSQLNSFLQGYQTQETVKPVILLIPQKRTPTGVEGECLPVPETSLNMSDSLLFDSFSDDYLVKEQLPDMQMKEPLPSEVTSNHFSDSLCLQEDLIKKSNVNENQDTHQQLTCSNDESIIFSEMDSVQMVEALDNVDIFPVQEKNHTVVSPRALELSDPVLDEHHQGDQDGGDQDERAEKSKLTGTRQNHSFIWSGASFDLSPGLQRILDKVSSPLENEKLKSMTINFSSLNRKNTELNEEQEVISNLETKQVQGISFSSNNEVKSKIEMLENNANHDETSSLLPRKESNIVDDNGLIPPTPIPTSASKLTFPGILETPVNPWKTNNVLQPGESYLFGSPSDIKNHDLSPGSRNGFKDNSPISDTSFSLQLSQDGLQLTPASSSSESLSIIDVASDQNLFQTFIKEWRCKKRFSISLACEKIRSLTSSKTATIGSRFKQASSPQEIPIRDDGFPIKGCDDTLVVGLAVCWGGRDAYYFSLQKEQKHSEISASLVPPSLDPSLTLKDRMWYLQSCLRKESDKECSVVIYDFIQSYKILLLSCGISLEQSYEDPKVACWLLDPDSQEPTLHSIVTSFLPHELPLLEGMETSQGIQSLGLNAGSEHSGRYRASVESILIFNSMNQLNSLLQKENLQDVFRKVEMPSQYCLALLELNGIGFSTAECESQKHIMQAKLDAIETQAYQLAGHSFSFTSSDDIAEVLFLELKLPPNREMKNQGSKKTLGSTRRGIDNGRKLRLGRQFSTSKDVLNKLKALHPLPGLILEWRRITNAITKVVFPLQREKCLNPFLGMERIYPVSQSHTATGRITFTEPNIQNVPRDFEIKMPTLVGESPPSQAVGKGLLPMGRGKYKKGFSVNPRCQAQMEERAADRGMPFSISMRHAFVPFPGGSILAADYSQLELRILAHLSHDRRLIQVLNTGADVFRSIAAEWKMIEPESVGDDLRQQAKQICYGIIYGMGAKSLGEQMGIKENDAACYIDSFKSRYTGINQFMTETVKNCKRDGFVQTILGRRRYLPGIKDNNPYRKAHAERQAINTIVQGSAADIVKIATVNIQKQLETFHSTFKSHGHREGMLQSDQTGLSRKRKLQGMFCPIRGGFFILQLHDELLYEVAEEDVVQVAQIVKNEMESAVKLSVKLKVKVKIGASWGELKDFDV
KDM1A: Lysine-specific histone demethylase 1A (KDM1A, Homo sapiens, UniProt O60341)
Rhomboid protease AarA: Rhomboid protease AarA (Providencia stuartii, UniProt P46116)
Sequence of UniProt P46116 (whole entry, looked up): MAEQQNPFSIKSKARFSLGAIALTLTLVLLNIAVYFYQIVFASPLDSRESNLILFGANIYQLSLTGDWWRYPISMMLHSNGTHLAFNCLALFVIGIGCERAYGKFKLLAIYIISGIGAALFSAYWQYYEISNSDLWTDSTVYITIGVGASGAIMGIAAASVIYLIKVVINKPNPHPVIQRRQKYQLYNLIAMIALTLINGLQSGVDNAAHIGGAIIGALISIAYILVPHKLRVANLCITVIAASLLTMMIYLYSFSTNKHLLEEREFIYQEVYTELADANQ
Sequence of UniProt P07711 (whole entry, looked up): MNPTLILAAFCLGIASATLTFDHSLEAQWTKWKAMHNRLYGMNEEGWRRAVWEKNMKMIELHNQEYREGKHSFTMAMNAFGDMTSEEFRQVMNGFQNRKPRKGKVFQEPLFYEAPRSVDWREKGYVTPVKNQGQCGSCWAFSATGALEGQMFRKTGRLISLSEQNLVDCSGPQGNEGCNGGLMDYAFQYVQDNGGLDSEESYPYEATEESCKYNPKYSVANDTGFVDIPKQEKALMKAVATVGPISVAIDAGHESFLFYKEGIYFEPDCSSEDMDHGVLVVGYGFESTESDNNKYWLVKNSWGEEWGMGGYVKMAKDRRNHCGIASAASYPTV
Sequence of UniProt Q9HB29 (whole entry, looked up): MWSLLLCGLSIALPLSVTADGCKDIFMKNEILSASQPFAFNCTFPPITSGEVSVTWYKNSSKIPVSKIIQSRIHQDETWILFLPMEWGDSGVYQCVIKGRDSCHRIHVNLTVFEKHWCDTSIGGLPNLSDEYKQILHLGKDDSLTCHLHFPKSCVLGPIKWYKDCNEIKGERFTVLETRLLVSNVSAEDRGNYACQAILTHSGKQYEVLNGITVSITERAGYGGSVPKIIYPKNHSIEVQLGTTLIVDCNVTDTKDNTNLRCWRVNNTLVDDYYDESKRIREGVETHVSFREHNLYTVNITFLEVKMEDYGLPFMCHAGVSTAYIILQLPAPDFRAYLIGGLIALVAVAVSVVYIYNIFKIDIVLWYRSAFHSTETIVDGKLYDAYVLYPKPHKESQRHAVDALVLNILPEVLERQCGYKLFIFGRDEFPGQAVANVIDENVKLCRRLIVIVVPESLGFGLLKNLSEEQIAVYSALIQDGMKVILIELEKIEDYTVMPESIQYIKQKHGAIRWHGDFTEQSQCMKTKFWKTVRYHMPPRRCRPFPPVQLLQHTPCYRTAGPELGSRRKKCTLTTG
Sequence of UniProt P45983 (whole entry, looked up): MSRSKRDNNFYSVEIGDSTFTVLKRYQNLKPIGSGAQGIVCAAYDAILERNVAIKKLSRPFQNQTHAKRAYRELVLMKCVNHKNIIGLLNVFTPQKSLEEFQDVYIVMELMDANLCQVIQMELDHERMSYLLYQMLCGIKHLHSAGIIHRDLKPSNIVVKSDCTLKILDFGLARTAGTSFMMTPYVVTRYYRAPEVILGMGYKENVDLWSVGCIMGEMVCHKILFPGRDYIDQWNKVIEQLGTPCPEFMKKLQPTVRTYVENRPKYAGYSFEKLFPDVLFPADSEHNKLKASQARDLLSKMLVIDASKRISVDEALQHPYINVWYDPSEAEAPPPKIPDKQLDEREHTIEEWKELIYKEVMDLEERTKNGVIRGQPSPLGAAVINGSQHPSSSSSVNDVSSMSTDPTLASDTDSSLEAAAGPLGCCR
Sequence of UniProt P12295 (whole entry, looked up): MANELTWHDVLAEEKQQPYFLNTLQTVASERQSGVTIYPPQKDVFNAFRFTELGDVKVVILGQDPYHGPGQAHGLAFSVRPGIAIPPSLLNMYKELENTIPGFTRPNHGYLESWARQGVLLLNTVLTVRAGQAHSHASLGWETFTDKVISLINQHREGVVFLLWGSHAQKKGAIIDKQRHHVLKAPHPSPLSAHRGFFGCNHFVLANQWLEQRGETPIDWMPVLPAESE

SMILES	target	assay	test system	setting	how to read	remaining activity
COc1ccccc1-c1ccncc1C(=O)Nc1ccc(OCc2ccc(Cl)cc2)nn1	POLQ helicase domain	ATPase activity, ADP-Glo		0.06 µM	baseline: 0 µM cpd	102%
OC1CCCN(CCCNc2cc(-c3ccccc3)nc3ccnn23)C1 (stereo not shown)	ung (Escherichia coli, UniProt P12295)	enzyme activity, inhibitor		concentration not given, counter-screen		101 ± 5%
COC(=O)c1cc2cc3c(cc2oc1=O)N(CC(=O)NC(Cc1ccc(C)cc1)C(=O)NCC=CS(=O)(=O)c1ccccc1)CCC3 (stereo not shown)	Procathepsin L (CTSL, Homo sapiens, UniProt P07711)	inhibitor		5 µM, 60 min, together with: Z-Phe-Arg-pNA	baseline: uninhibited control	6%
COC(=O)[C@@]1(C(C)C)C=C(C(=O)Nc2cccc(C(=O)Nc3ccc(Nc4nccc(-c5cccnc5)n4)c(C)c3)c2)C(=O)CC1	Mitogen-activated protein kinase 8 (MAPK8, Homo sapiens, UniProt P45983)	kinase activity, inhibitor		133.3 µM, unit not given, together with: 10 mM glutathione	baseline: no inhibitor	0.0554
O=C(Nc1nncs1)c1cccc([C@@H]2C[C@H]2NC2CCC2)c1	KDM1A	demethylase activity, inhibitor, Amplex Red		0.02469 µM, together with: H3K4me2 peptide	baseline: vehicle	105%
Cc1cc(C(=O)Nc2nc3cccc(C)c3n2[C@H]2CCCCN(C(=O)/C=C/CN(C)C)C2)ccn1	CDC2-like kinase 1 (Trypanosoma brucei brucei, UniProt Q382U0)	kinase activity, ADP-Glo		0.07812 µM		66.6%
Cc1ccc(C2CC(=O)N2S(=O)(=O)c2cccc(Cl)c2)cc1 (stereo not shown)	Rhomboid protease AarA	substrate cleavage, gel-based		100 µM	baseline: DMSO	98%
COC(=O)c1cccc([C@@H]2C[C@H]2NC2CCC2)c1	KDM1A	demethylase activity, inhibitor		1.852 µM, together with: H3K4me2 peptide		77.3%
COc1ccccc1-c1ccncc1C(=O)Nc1nnc(OCc2ccc(Cl)cc2)s1	POLQ helicase domain	ATPase activity, ADP-Glo		0.48 µM, together with: ATP 100 µM		27%
O=C(Nc1cccc([C@@H]2C[C@H]2NC2CCC2)c1)c1ccccc1	KDM1A	demethylase activity, inhibitor		0.2058 µM, together with: H3K4me2 peptide		95.7%
CC(C)[C@@H]1NC(=O)[C@H](Cc2ccccc2)NC(=O)CSC[C@@H](C(N)=O)NC(=O)[C@H](CCC(=O)O)NC(=O)[C@H](CO)NC(=O)[C@H](Cc2c[nH]c3cccc(Cl)c23)NC(=O)[C@H](C2CCCCC2)NC(=O)[C@H](C(C)C)NC(=O)[C@H](Cc2ccc(O)cc2)NC(=O)[C@H](CC(=O)O)NC(=O)[C@H](Cc2c[nH]c3ccccc23)NC(=O)[C@H](Cc2ccc(N)nc2)NC(=O)[C@H](Cc2c[nH]c3ccc(Cl)cc23)NC(=O)[C@H](CCC(=O)O)NC1=O	Interleukin-1 receptor-like 2 (IL1RL2, Homo sapiens, UniProt Q9HB29)	reporter gene (SEAP), inhibitor, HEK-Blue IL-36R reporter	HEK-Blue IL-36R cells	0.005 µM, 6 h, together with: IL-36γ 10 ng/mL		114%
CC1C(=O)N(S(=O)(=O)c2ccc(C#N)cc2)C1c1ccccc1 (racemic)	Rhomboid protease AarA	substrate cleavage, gel-based		100 µM	baseline: DMSO	57%
CN(C)C(=O)c1cccc([C@@H]2C[C@H]2NC2CCC2)c1	KDM1A	demethylase activity, inhibitor		0.6173 µM, together with: H3K4me2 peptide		89.1%

Repeated from above:
SMILES	target	assay	test system	setting	how to read	remaining activity
OC1CCCN(CCCNc2cc(-c3ccccc3)nc3ccnn23)C1 (stereo not shown)	ung (Escherichia coli, UniProt P12295)	enzyme activity, inhibitor		concentration not given, counter-screen		101 ± 5%
